# Assay results pooled from the literature.
# Protocols differ between the studies behind these lines. Values joined by “and” are separate records of one study, mostly repeats; a detail may differ. ± gives the spread as reported.
SMILES,cell line,assay,setting,how to read,viability
CCc1c(-c2ccc3[nH]ncc3c2)cnc(N)c1-c1ccc(O)cc1,CHP-212,SRB,0.7812 µM,,102% and 99.9%
CC[C@H](C)[C@@H](C(=O)N[C@@H](Cc1ccc(O)cc1)C(=O)N1CCC[C@H]1C(=O)N[C@@H](Cc1ccccc1)C(=O)O)n1cc(C(Cc2ccc(O)cc2)NC(=O)[C@@H](NC(=O)[C@H](CCCNC(=N)N)NC(=O)[C@@H](N)CC(=O)O)C(C)C)nn1 (stereo partly shown),Caco-2,"cell growth or viability, MTT","100 µM, 48 h",,74.4%
CCC1C=CC2CCN(C(=O)C3CCC4C=CC5(CCCN5C(=O)C(Cc5ccccc5Cl)NC(C)=O)C(=O)N43)C2C(=O)N1CC(=O)OC (stereo not shown),MDA-MB-231,,"180 µM, 24 h",,not toxic
CC(=O)OC[C@H]1O[C@@H]([Se]c2ccc([N+](=O)[O-])cc2[N+](=O)[O-])[C@H](OC(C)=O)[C@@H](OC(C)=O)[C@@H]1OC(C)=O,THP-1 macrophages (PMA-differentiated),WST-1,"10 µM, 24 h",,115 ± 1.8%
COC1OC(C)C(OC2OC(C)C(O)C(OC3OC(C)C(OC4OC(C)C(O)C(OC5OC(C)C(OC6OC(C)C(O)C(OC7OC(C)C(OC8OC(C)C(O)C(OS(=O)(=O)O)C8OS(=O)(=O)O)C(OS(=O)(=O)O)C7OS(=O)(=O)O)C6OS(=O)(=O)O)C(OS(=O)(=O)O)C5OS(=O)(=O)O)C4OS(=O)(=O)O)C(OS(=O)(=O)O)C3OS(=O)(=O)O)C2OS(=O)(=O)O)C(OS(=O)(=O)O)C1OS(=O)(=O)O (stereo not shown),NIH 3T3,CCK-8,"concentration not given, 24 h, medium concentration",reference: untreated cells,100% and 92.2% and 99.7%
CC(=O)OC[C@H]1O[C@@H]([Se]C(=O)c2ccc([N+](=O)[O-])cc2)[C@H](OC(C)=O)[C@@H](OC(C)=O)[C@@H]1OC(C)=O,THP-1 macrophages (PMA-differentiated),WST-1,"50 µM, 24 h",,22.3 ± 17.5%
CCOC(=O)C1CC(CC)C2C=CC3CCN(C(=O)C4CCC5C=CC6(CCCN6C(=O)C(Cc6ccccc6Cl)NC(C)=O)C(=O)N54)C3C(=O)N12 (stereo not shown),MDA-MB-231,,"180 µM, 24 h",,not toxic
CN1CCCNC(=O)c2cccc(c2)C(=O)NCCCN(C)CCCNc2cccc3c2C(=O)c2cccc(c2C3=O)NCCC1,NHEK,CCK-8,"15 µM, 48 h",reference: untreated,17.5%
CC(C)=CCc1c(O)c(CC=C(C)C)c2occ(-c3ccc(O)c(O)c3)c(=O)c2c1O,A549,"cell growth or viability, MTT",100 µg/mL,,114%
CO[C@H]1C=C[C@@H](OC(=O)c2ccccc2)[C@H](O)[C@@]1(O)COC(=O)c1ccccc1,A549,"cell growth or viability, MTT",100 µg/mL,,77.1%
COc1cc(N2CCN(C(=O)CN)CC2)ccc1Nc1ncc(Cl)c(Nc2ccccc2P(C)(C)=O)n1,NCI-H3122,"cell growth or viability, CCK-8","50 nM, 48 h",,65% and 59%
c1cc2nc(c1)-c1cccc(n1)CCCc1ccc(cc1)OCCCCCCOc1ccc(cc1)CCC2,Caco-2,"cell growth or viability, MTT","200 µM, 48 h",,52.5%
CC(=O)OC[C@H]1O[C@@H]([Se]SC[C@H]2O[C@@H]3OC(C)(C)O[C@@H]3[C@H]3OC(C)(C)O[C@H]32)[C@H](OC(C)=O)[C@@H](OC(C)=O)[C@@H]1OC(C)=O,THP-1 macrophages (PMA-differentiated),WST-1,"50 µM, 24 h",,0.9 ± 0.9%
COc1cc(Oc2c(OC)cc(C)c(Br)c2O)c(C(=O)O)c(C)c1O,A549,MTT,"10 or 50 µM, 48 h",,98.8 ± 4.4%
COC1OC(C)C(OC2OC(C)C(OS(=O)(=O)O)C(OC3OC(C)C(OC4OC(C)C(OS(=O)(=O)O)C(OC5OC(C)C(OC6OC(C)C(OS(=O)(=O)O)C(OC7OC(C)C(OS(=O)(=O)O)C(OS(=O)(=O)O)C7OS(=O)(=O)O)C6OS(=O)(=O)O)C(OS(=O)(=O)O)C5OS(=O)(=O)O)C4OS(=O)(=O)O)C(OS(=O)(=O)O)C3OS(=O)(=O)O)C2OS(=O)(=O)O)C(OS(=O)(=O)O)C1OS(=O)(=O)O (stereo not shown),NIH 3T3,CCK-8,"concentration not given, 24 h, high concentration",reference: untreated cells,84.6% and 98.6% and 95%
COc1ccc(Cn2cc(CO[C@@H]3O[C@H]4[C@H](OC[C@H]4O)[C@H]3N=[N+]=[N-])nn2)cc1,Huh-7,"cytotoxicity, CellTiter-Glo","up to 30 µM, 72 h",,not toxic
O=CCNCCOn1c(=O)n(OCCNCCO)c(=O)n(OCCNCCOn2c(=O)n(OCCNCCO)c(=O)n(OCCNCCO)c2=O)c1=O,HUVEC,"cell growth or viability, MTT","25 µg/mL, 48 h",,38.2%
CC(=O)OC[C@H]1O[C@@H]([Se]C(C)=O)[C@H](OC(C)=O)[C@@H](OC(C)=O)[C@@H]1OC(C)=O,THP-1 macrophages (PMA-differentiated),WST-1,"50 µM, 24 h",,63.8 ± 16.9%
COC1OC(C)C(OS(=O)(=O)O)C(OC2OC(C)C(OS(=O)(=O)O)C(OC3OC(C)C(OS(=O)(=O)O)C(OC4OC(C)C(OS(=O)(=O)O)C(OC5OC(C)C(OS(=O)(=O)O)C(OC6OC(C)C(OS(=O)(=O)O)C(OC7OC(C)C(OS(=O)(=O)O)C(OC8OC(C)C(OS(=O)(=O)O)C(OC9OC(C)C(OS(=O)(=O)O)C(OC%10OC(C)C(OS(=O)(=O)O)C(OS(=O)(=O)O)C%10OS(=O)(=O)O)C9OS(=O)(=O)O)C8OS(=O)(=O)O)C7OS(=O)(=O)O)C6OS(=O)(=O)O)C5OS(=O)(=O)O)C4OS(=O)(=O)O)C3OS(=O)(=O)O)C2OS(=O)(=O)O)C1OS(=O)(=O)O (stereo not shown),NIH 3T3,CCK-8,"concentration not given, 24 h, low concentration",reference: untreated cells,111% and 90.8% and 92.3%
Cc1ccc(-n2cc(CSc3nc4ccccc4n3Cc3cn(-c4ccc(C)cc4)nn3)nn2)cc1,HEK293,MTT,125 ppm,,16.4%
COC1OC(C)C(OS(=O)(=O)O)C(OC2OC(C)C(OS(=O)(=O)O)C(OC3OC(C)C(OS(=O)(=O)O)C(OC4OC(C)C(OS(=O)(=O)O)C(OC5OC(C)C(OS(=O)(=O)O)C(OC6OC(C)C(OS(=O)(=O)O)C(OC7OC(C)C(OS(=O)(=O)O)C(OC8OC(C)C(OS(=O)(=O)O)C(OS(=O)(=O)O)C8OS(=O)(=O)O)C7OS(=O)(=O)O)C6OS(=O)(=O)O)C5OS(=O)(=O)O)C4OS(=O)(=O)O)C3OS(=O)(=O)O)C2OS(=O)(=O)O)C1OS(=O)(=O)O (stereo not shown),NIH 3T3,CCK-8,"concentration not given, 24 h, high concentration",reference: untreated cells,87.6% and 107% and 100%
COc1ccc(Cn2cc(CCO[C@@H]3O[C@H]4[C@H](OC[C@H]4O)[C@H]3O)nn2)cc1,HPAF-II,"cytotoxicity, CellTiter-Glo","up to 30 µM, 72 h",,not toxic

# Excerpt of the above:
SMILES,cell line,assay,setting,how to read,viability
COc1ccc(Cn2cc(CO[C@@H]3O[C@H]4[C@H](OC[C@H]4O)[C@H]3N=[N+]=[N-])nn2)cc1,Huh-7,"cytotoxicity, CellTiter-Glo","up to 30 µM, 72 h",,not toxic
O=CCNCCOn1c(=O)n(OCCNCCO)c(=O)n(OCCNCCOn2c(=O)n(OCCNCCO)c(=O)n(OCCNCCO)c2=O)c1=O,HUVEC,"cell growth or viability, MTT","25 µg/mL, 48 h",,38.2%
CC(=O)OC[C@H]1O[C@@H]([Se]C(C)=O)[C@H](OC(C)=O)[C@@H](OC(C)=O)[C@@H]1OC(C)=O,THP-1 macrophages (PMA-differentiated),WST-1,"50 µM, 24 h",,63.8 ± 16.9%
COC1OC(C)C(OS(=O)(=O)O)C(OC2OC(C)C(OS(=O)(=O)O)C(OC3OC(C)C(OS(=O)(=O)O)C(OC4OC(C)C(OS(=O)(=O)O)C(OC5OC(C)C(OS(=O)(=O)O)C(OC6OC(C)C(OS(=O)(=O)O)C(OC7OC(C)C(OS(=O)(=O)O)C(OC8OC(C)C(OS(=O)(=O)O)C(OC9OC(C)C(OS(=O)(=O)O)C(OC%10OC(C)C(OS(=O)(=O)O)C(OS(=O)(=O)O)C%10OS(=O)(=O)O)C9OS(=O)(=O)O)C8OS(=O)(=O)O)C7OS(=O)(=O)O)C6OS(=O)(=O)O)C5OS(=O)(=O)O)C4OS(=O)(=O)O)C3OS(=O)(=O)O)C2OS(=O)(=O)O)C1OS(=O)(=O)O (stereo not shown),NIH 3T3,CCK-8,"concentration not given, 24 h, low concentration",reference: untreated cells,111% and 90.8% and 92.3%
